{"data": "Measured values of several laboratories", "note": "Lines come from different studies, so protocols differ. Values joined by “and” are separate records of one study, mostly repeats; a detail may differ. ± gives the spread as reported."}
{"Structure (SMILES)": "N#Cc1ccc(C(c2ccc(C#N)cc2)n2cncn2)cc1", "test": "ELISA", "system": "human patients, tumour homogenate", "conditions": "5 mg daily", "measurement": "estradiol concentration", "result": "793 ± 74.1 pg/mL"}
{"Structure (SMILES)": "OC(CCN1CCCCC1)(c1ccccc1)C1CC2C=CC1C2 (stereo not drawn)", "test": "resting-state EEG", "system": "healthy elderly humans", "conditions": "oral, 2 mg, eyes closed, LS mean", "how to read": "reference: baseline", "measurement": "change in EEG Alpha1-power Fz-Cz", "result": "-20.2%"}
{"Structure (SMILES)": "C[C@]12CC[C@@H]3c4ccc(O)cc4C[C@@H](CCCCCCCCC[S+]([O-])CCCC(F)(F)C(F)(F)F)[C@H]3[C@@H]1CC[C@@H]2O (stereo partly drawn)", "test": "degrader", "system": "in vivo preclinical models", "conditions": "dose not given, monotherapy average", "measurement": "ER protein reduction", "result": "60%"}
{"Structure (SMILES)": "CO[C@H]1CC[C@H](N2C(=O)CNc3ncc(-c4ccc(C(C)(C)O)nc4)nc32)CC1", "test": "flow cytometry", "system": "stimulated monocytes, human, blood", "conditions": "45 mg single dose, 3 h, mean", "how to read": "reference: baseline", "measurement": "pAKT change from baseline", "result": "-57.6%"}
{"Structure (SMILES)": "COc1ccc(-c2cncc(N[C@@H](C)c3cccc(NC(=O)c4cncc(C)c4)c3)n2)cc1OC", "test": "refers to: rno-miR-212-3p", "system": "rat SU5416/hypoxia model, lung", "conditions": "dose not given", "how to read": "reference: SU5416/hypoxia vehicle", "measurement": "fold change", "result": 1.51}
{"Structure (SMILES)": "C[C@H]1C[C@H]2CSC(N)=N[C@@]2(c2nc(NC(=O)c3ccc(OC(F)F)cn3)cs2)CO1", "test": "refers to: total Aβ", "system": "healthy adults, plasma", "conditions": "275 mg once daily, day 14", "how to read": "reference: placebo", "measurement": "percent change from baseline", "result": "-69%"}
{"Structure (SMILES)": "O=C(COc1ccc(Cl)cc1)NC12CC(c3nnc([C@H]4C[C@@H](OC(F)(F)F)C4)o3)(C1)C2", "system": "healthy human, PBMC", "conditions": "oral, 400 mg single dose, day 2, 24 h post-dose, median, together with: sodium arsenite ex vivo", "how to read": "reference: baseline", "measurement": "CHAC1 mRNA change", "result": "-58.1%"}
{"Structure (SMILES)": "CNS(=O)(=O)Nc1nccc(Cc2c(C)c3ccc(Oc4ncccn4)cc3oc2=O)c1F", "system": "mouse HCT-116 KRAS G13D xenograft", "conditions": "oral, once daily", "measurement": "ED50", "result": "0.056 mg/kg"}
{"Structure (SMILES)": "C[C@@H](NC(=O)N1C(=O)[C@H](Cc2ccnc(N)c2)[C@H]1C(=O)O)C1CCCCC1", "system": "human", "conditions": "iv infusion, 2.25 mg/kg/h, 24 h, unit not given", "how to read": "reference: baseline", "measurement": "aPTT AUEC", "result": 220}
{"Structure (SMILES)": "COC(=O)c1c(C)[nH]c(C)c1C(=O)c1ccccc1Cc1ccccc1", "test": "high-content microscopy", "system": "DRG neurons, rat", "conditions": "dose not given, unit not given, together with: DAMGO 0.03", "how to read": "reference: no DAMGO", "measurement": "serotonin-induced response", "result": "1 and 0.851 and 1.04 and 1.05"}
{"Structure (SMILES)": "O=C(O)c1ccc(-n2cc(CNc3cc(Br)cc(C(F)(F)F)c3)c(-c3ccc(F)c(F)c3)n2)cc1", "system": "Caenorhabditis elegans, S. aureus infected", "conditions": "2 µg/mL, 5 days", "measurement": "survival", "result": "~80%"}
{"Structure (SMILES)": "CCCn1cc(C)c2c(=O)[nH]c(-c3cc(S(=O)(=O)N4CCN(CC)CC4)ccc3OCC)nc21", "system": "supine", "conditions": "median", "measurement": "time to maximum SBP change", "result": "1.97 h"}
{"Structure (SMILES)": "O=C1Nc2cc3[nH]nc(-c4ccncc4)c3cc2CN1Cc1ccccc1", "test": "RECIST v1.1", "system": "human, relapsed or refractory advanced solid tumours", "conditions": "intravenous, 3.6 mg/kg", "measurement": "complete response, best response", "result": "0%"}
{"Structure (SMILES)": "O=C(O)CNC(=O)Cc1ccccc1", "system": "ventricular cardiomyocytes, C57BL/6 mouse", "conditions": "dose not given, 0.132 s", "measurement": "sarcomere length", "result": "1.69 µm"}
{"Structure (SMILES)": "N#Cc1ccc2c(c1)[C@H]1CCCN(C(=O)c3ccc4[nH]cnc4c3)[C@H]1C2", "system": "human clinical trial", "conditions": "oral, 240 mg once daily, at last treatment", "measurement": "ACTH level", "result": "14.3 pmol/L"}
{"Structure (SMILES)": "N#Cc1ccc2c(-c3ccncc3)c(-c3ccc(F)cc3)nn2c1", "test": "kinase binding, competitor, MIB/MS competition, refers to: YAK1", "system": "Candida albicans cell lysate", "conditions": "100 nM", "how to read": "reference: DMSO", "measurement": "log2 fold change", "result": 0.215}
{"Structure (SMILES)": "CCN(Cc1nc2c(N)nc3cc(-c4cc[nH]n4)ccc3c2[nH]1)C(C)=O", "test": "Luminex, refers to: IL-1β", "system": "cancer patients, serum", "conditions": "4000 µg monotherapy, first 24 h", "how to read": "reference: baseline", "measurement": "fold change", "result": 2.6}
{"Structure (SMILES)": "O=C(OC(C(F)(F)F)C(F)(F)F)N1CCN(Cc2cccc(Oc3ccccc3)c2)CC1", "test": "PET blocking study", "system": "rhesus monkey, brain HIP", "conditions": "0.01 mg/kg, compound pretreatment, together with: [18F]T-401 tracer", "measurement": "k4", "result": "0.0819 min⁻¹"}
